Published values collected from several papers.
A part holds a random share of what one study measured. Positions count from the first letter of the parent shown.
UniProt P11229, sequence (whole entry, looked up): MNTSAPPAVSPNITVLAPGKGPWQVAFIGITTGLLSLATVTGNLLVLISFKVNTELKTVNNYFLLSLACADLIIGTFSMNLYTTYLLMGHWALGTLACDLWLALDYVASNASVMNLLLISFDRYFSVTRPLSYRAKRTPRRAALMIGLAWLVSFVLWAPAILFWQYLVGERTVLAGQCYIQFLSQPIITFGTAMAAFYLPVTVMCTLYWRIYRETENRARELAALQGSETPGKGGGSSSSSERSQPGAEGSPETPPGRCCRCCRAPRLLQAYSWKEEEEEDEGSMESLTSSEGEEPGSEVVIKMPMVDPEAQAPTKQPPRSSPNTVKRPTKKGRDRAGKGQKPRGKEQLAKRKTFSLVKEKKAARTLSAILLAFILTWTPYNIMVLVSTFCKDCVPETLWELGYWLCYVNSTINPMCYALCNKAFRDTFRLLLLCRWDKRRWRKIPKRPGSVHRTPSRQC
UniProt P61075, sequence (whole entry, looked up): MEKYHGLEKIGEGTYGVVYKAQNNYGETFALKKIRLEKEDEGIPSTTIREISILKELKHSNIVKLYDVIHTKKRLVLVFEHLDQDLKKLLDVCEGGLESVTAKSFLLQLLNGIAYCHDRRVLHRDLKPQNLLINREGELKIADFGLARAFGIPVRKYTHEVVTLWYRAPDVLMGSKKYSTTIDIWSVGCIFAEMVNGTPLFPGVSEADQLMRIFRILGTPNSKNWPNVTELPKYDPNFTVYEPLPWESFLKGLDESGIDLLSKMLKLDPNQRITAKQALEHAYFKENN

Set 1
Target: HLA class I histocompatibility antigen, A alpha chain, allele A*80:01 (Homo sapiens, UniProt P04439)
Effect on: peptide-MHC binding
Form: peptide
Tested at: concentration not given
Endpoint: binding
TQIPRQMVL: inactive
VMTDGPANK: inactive
HQFTSNPEV: inactive
DWMERIEDF: inactive
RYEFTAPFI: inactive
KQLPPLAAW: inactive
FLSFASLFL: inactive
HTAEIQQFF: inactive

Set 2
Target: CCNB2, cyclin fold, Cln2 fusion (human)
Method: yeast growth competition, sequencing
Matrix: yeast
Setting: weak parent motif
Relative to: not given
Direction: higher = stronger binding
Endpoint: normalised enrichment score
Starting sequence: viral docking peptide; KGVKRKLFAEDSS
D11E: 0.785
E10S: 0.538
S12D: 1.35
A9C: 0.812
S12N: 0.845
V3H: 0.892
L7T: 0.608
L7I: 0.0897

Further values, each from its own experiment
CCCCCCCCCOc1ccc2[nH]cc(CCN)c2c1 — log2 fold change (Sarcocystis neurona; parasite growth; concentration not given, second screen; relative to: untreated): 0.17
O=C(NCc1ncc(C(F)(F)F)cc1Cl)c1ccc2c(c1)C1(CCS(=O)(=O)CC1)[C@@H](C1CC1)N2S(=O)(=O)c1ccc(F)cc1 — remaining binding (CRK2 (Plasmodium falciparum, UniProt P61075); cell-free assay, competition with immobilised ligand; 1 µM): 97%
C[N+]1(CCC(C(N)=O)(c2ccccc2)c2ccccc2)CCCCC1.[Br-] — log2 fold change (Sarcocystis neurona; parasite growth; concentration not given, second screen; relative to: untreated): 0.16
C[C@H](NC(=O)Nc1cc2[nH]ncc2c(CO)n1)c1ccccn1 — inhibition (CHRM1 (Homo sapiens, UniProt P11229); cell-free assay; 10 µM): -12.2%

Excerpt of the above (set 2):
A9C: 0.812
S12N: 0.845
